Published values from different studies.
Each numbered part is a random draw from the data of one study; scales do not carry over between parts. Changes are numbered by the printed parent chain.

Block 1
Target: human cyclin B2
Observed: peptide binding
Technique: yeast competitive growth sequencing
Molecule type: peptide
Organism: Saccharomyces cerevisiae
Strain: cyclin B2-Cln2 fusion
Tested at: concentration not given
Setting: peptide tiling library
Reading: direction not given
Sequence | binding enrichment score
RRRRLLFWDKETQI | 0.501
RKLDLEGIGR | 0.918
NSMKELNFSHLPSNSV | 0.515
SPPRGRRLFPPGPAGF | -0.565
PPTFLSTGEIHAFLSS | 0.476

Block 2
Target: Histone acetyltransferase KAT6A, winged helix 1, GST fusion (KAT6A, Homo sapiens, UniProt Q92794, residues 1-85)
Technique: protein binding microarray
Molecule type: double-stranded DNA, one strand shown
Medium: in vitro
Tested at: not given
Setting: 8-mer, flanks averaged, mean of 2 arrays, mostly near background
Baseline: not given
Reading: higher = stronger binding
Target sequence (chain): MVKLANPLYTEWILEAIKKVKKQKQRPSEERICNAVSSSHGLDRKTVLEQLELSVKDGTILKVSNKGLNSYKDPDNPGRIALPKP
Strand | E-score
ATAGGCCA | 0.0246
ACTTGATC | -0.104
AGCTCAGC | -0.115
ATGGCAAA | -0.0858
GATGGGAA | -0.127
CCGATACG | 0.305

Block 3
Target: Sal-like protein 4, full length isoform A (SALL4, Homo sapiens, UniProt Q9UJQ4, residues 1-1053)
Sequence of UniProt Q9UJQ4 (whole entry, looked up): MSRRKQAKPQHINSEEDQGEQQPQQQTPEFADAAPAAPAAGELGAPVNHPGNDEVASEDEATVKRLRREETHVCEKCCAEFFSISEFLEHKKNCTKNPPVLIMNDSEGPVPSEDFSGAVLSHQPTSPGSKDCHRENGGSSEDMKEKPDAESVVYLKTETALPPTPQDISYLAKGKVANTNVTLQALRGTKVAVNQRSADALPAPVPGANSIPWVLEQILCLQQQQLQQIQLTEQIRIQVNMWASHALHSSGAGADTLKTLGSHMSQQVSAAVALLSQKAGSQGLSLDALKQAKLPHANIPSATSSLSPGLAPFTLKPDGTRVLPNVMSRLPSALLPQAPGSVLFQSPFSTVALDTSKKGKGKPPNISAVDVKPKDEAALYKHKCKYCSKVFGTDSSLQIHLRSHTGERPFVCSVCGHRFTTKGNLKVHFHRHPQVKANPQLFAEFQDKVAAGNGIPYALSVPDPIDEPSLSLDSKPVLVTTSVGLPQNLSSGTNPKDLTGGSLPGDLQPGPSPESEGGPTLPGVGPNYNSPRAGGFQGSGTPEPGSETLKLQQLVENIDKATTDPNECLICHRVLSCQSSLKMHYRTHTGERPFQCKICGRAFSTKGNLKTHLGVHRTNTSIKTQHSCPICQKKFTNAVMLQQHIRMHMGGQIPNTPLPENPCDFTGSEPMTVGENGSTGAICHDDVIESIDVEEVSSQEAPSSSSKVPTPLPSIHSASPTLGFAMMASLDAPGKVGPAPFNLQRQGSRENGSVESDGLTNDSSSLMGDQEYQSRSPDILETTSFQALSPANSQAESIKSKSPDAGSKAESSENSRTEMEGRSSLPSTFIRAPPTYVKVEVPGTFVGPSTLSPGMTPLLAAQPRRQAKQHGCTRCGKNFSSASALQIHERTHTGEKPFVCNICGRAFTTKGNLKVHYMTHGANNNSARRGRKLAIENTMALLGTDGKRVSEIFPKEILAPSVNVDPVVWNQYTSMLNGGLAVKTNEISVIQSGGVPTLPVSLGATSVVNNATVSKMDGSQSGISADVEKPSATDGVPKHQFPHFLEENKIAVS
Technique: universal PBM
Molecule type: double-stranded DNA, one strand shown
Medium: in vitro
Tested at: 600 nM
Setting: 8-mer, flanks averaged, mean of replicates
Reading: higher = stronger binding
Strand | E-score
CCCCAAAG | -0.19
GTGTGAAA | 0.258
GTGCCCAA | -0.173

Other studies, line by line
P1: PYL1, truncated, DHFR fusion (Arabidopsis thaliana); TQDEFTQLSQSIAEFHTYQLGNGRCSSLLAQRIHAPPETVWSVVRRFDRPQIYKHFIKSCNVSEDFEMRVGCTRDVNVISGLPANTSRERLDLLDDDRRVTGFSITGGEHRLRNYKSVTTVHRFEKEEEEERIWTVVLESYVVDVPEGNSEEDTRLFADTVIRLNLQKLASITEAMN; partner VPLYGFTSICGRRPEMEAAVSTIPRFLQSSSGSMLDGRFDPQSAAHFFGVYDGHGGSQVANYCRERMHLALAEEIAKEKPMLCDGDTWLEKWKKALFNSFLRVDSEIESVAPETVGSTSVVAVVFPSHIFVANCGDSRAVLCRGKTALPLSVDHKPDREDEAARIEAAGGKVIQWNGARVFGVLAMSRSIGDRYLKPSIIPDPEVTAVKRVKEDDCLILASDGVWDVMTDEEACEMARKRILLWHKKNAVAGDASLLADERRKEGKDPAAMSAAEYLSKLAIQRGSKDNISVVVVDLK
Substance | target | assay | test system | setting | scale | quantity | result
PhoQ, residues 284 288 289 292 302 303 NLGVHL | PhoP, residues 12 14 15 18 19 NNFVT (Escherichia coli, UniProt P23836) | Sort-seq, item: YFP reporter | E. coli | PhoQ-PhoP variant library, added: 10 µM Mg2+ | baseline: high Mg2+ state, higher = stronger signaling | fold induction | 11.3
P1 H34D | ABI1, truncated, D143A, DHFR fusion (Arabidopsis thaliana) | DHFR PCA, deep sequencing | yeast | methotrexate growth selection, single substitutions, added: (+)-ABA 17 µM | baseline: wild-type fitted maximum, higher = stronger binding | relative binding score | 85.5%

Repeated from above (other studies, line by line):
Substance | target | assay | test system | setting | scale | quantity | result
PhoQ, residues 284 288 289 292 302 303 NLGVHL | PhoP, residues 12 14 15 18 19 NNFVT (Escherichia coli, UniProt P23836) | Sort-seq, item: YFP reporter | E. coli | PhoQ-PhoP variant library, added: 10 µM Mg2+ | baseline: high Mg2+ state, higher = stronger signaling | fold induction | 11.3
